Experimental data collected from several papers.
Parts stem from different laboratories: compare values within a part only. Positions count from the first letter of the parent shown.

Study 1
Target: RING finger protein unkempt homolog, zinc fingers 1-6, SBP tag (UNK, Homo sapiens, UniProt Q9C0B0, residues 30-357)
Chain of UniProt Q9C0B0 (30-357, looked up): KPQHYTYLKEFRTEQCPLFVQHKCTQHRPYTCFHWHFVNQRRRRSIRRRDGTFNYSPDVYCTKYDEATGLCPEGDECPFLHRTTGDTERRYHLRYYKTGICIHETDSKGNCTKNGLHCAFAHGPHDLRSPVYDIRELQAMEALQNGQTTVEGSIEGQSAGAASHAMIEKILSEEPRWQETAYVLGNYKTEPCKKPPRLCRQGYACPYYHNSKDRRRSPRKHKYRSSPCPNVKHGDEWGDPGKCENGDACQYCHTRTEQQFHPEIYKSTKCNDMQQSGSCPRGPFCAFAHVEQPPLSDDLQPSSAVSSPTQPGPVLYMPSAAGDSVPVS
Technique: RNA Bind-n-Seq
Form: RNA
Sample: in vitro
Tested at: 100 nM
Setting: RNA with constant flanks, vertebrate orthologous sites, ends assumed
Relative to: input RNA pool
Direction: higher = stronger binding
Shared flanks, not repeated: GGGAGUUCUACAGUCCGACGAUC … CAACAGAGGAUUGAGCAUCA
Oligonucleotide | bound/input enrichment [ratio]
CUGUUGUUAAGCACUGUGUUCCAGACCGUGUCUGACUUUAGUGUAACCUAGGAGAUUUUAUAGUUUUAUUUUAAUGAAACCUGCUUGACGCAGAGCAGUGAGGAGAGCAGUGUCCUCUAC | 1.61
GUUGAACAUAAAUGUUUCCACUGGGUUUUGCUUAUAAGAAGAAAUGGGCCCAUGCACUUAUAUAGCUUUUUAAUAGCGUUAACCAAUGCAUUUUUAGACAUAUUUUGAUGUAUAUAUCUA | 1.35
CAUGUCCCUGUUACUGUGACAUUUUAAAUAUCCACAGUGCUCACUUUUUCCAAAUGAUUCUAGUAAUUACCUAGAAAUAUUUUUCUCUUACCUGUUAUUUAUCAAUUUUCCCCCAGUAUU | 1.8
GCUCCUGUAUAGCAAGUAGAAUGGGUUCCUCCUACUUCUCCCAGGAGCAAAAAGCCCAAAGAGAUUCCAGACACAUCUGAUUAUACUGUUCUGUUUUUGUUUUCUGUUAUUCUUCCGUAU | 0.521
AAGUAGUUUUAAGCUUGUUUGCACAGUUCUUUUUUCCAUUGGAAAUGGAAUCCAUUGCCUUAGGUCUUUUUAAAUAGUGUAUUAUCGUUGGGGCUGGCUCUAUGCUUGAAAACCAGUUUA | 2.44
AAAUGCAAUGGUUGAAGGCUCUGAGCUCAAAAAGAUUCGAUCCAACUCUAGGGUGUAUCACCGAUACUUUCUUUUAGAUGCAGAUAUGCAGUCUCUACGCUGGGAACCUUCAAAAAAGGA | 0.3
GUGACUUUGGAAGUCUGCAGUGUCUCAUUGCAGAUACUACUUAGCUCAGGGCCUGGUGGCUAGACAGGUUCUCUCCUUUCCAGUCGGAGGCCUCUGCCGCAAACAUGCUCCGCCACAUCC | 0.309
CCUACAAUAAUGAAAACCUAUAGAAAUUUUUUAAUUUUUCAUUUUCCCCUUAGGCAUACAUAGUCUUUUUUUCCCCCAGGCAGAUCAUUCUGAGUGUGCGAGUGUGUGUGCACAUGUUAC | 3.15
AAAUGCAAUAGAAUUACACUAAUACUGAAGUUUCCAGUUGAAAGGAUAUCCAAGUGUGUGUUGGUAGUUACUAAAAAGAAUUAUAGCUGUUAUUGCCUUGUAUUUAUAUCCCUUGUUUCA | 1.41
UAGUGCCAUGGUGGAGGGCUCCGAGCUCAAAAAGGUCCGCUCCAACUCCAGGAUUUACCACAGGUAUUUCUUGCUGGAUGCCGACAUGCAGAGCCUGAGGUGGGAACCAUCCAAGAAGGA | 0.246
CACAUCUGGUGAUAUUUGGCCUGGCCUUUCAGCUUAUGAUAAUAGCCCCAGAUCGCCCCAUAGUCCUUCACCAAUUGCUACACCACCUAGUCAGAGUUCAUCUUGCUCUGAUGCCCCCAU | 1.09

Study 2
Target: Fragile X messenger ribonucleoprotein 1, C-terminal low-complexity region (Fmr1, Mus musculus, UniProt P35922)
Technique: RNA Bind-n-Seq
Form: RNA
Sample: in vitro
Tested at: 200 nM
Setting: whole 134-nt RNA, ends assumed
Together with: 150 mM KCl
Relative to: input library
Direction: higher = stronger binding
Shared flanks, not repeated: GGGAGUUCUACAGUCCGACGAUC … UGGAAUUCUCGGGUGUCAAGG
Oligonucleotide | log2 enrichment
CCUGUGCUACACAUCGUAUGUACCGAAUCGGCCCCCCCGGGGCCCCCCCGGCCCCCCCGGAAAGUAUUAUGUUACGCCGUUCGGAUCUGC | -0.26
GUCCUGUGCUACACAUCGUAUGUACCGAAUCGGGAAAGGGUUUUUGGGUUUUUUUGGGAAAGUAUUAUGUUACGCCGUUCGGAUCUGCAC | -0.0366
GUCCUGUGCUACACAUCGUAUGUACCGAAUCGGGAGGGUUUUUUUGGGUUUUUUUGGGAAAGUAUUAUGUUACGCCGUUCGGAUCUGCAC | 0.0877
CUCAAGUCCUGUGCUACACAUCGUAUGUACCGAAUCGGGUUGGUUGGGGUUGGAAAGUAUUAUGUUACGCCGUUCGGAUCUGCACUUCCA | 0.34
UCCUGUGCUACACAUCGUAUGUACCGAAUCGGGGAAAAAAAGGGGAAAAAGGGGUGGGGAAAGUAUUAUGUUACGCCGUUCGGAUCUGCA | 0.565
AAGUCCUGUGCUACACAUCGUAUGUACCGAAUCGGUUUUGGUUUUGGGUUUUGGGGAAAGUAUUAUGUUACGCCGUUCGGAUCUGCACUU | -0.432
UGGGAGGUGGAUUUUGUUUAUUUUUUUAGCUCAUUUCCAGGGGUGGGAAUUUUUUUUUCAUAUGUGUCAUGAAUAAAGUUGUUUUUGAAA | 0.217
UUAAAGUAGAGGAACAAAAAGAAGAACAGAAGGAGUUAGAGAAAUCUGAAAAAGAAGAGGAUGAGGAUGAUGAUAGGAAAUCUGAAGACG | -0.254
UUUACAAAUAUGCCCAAGACUUCUUGGUGGCUAUUGCAGAGCCAGUGUGCCGACCAACCCAUGUGCAUGAGUACAAACUAACUGCCUACU | 0.237
CAAGUCCUGUGCUACACAUCGUAUGUACCGAAUCGGUUUUUGGUUUUUUUGGAGGAAAGUAUUAUGUUACGCCGUUCGGAUCUGCACUUC | -0.432

Study 3
Target: Histone acetyltransferase KAT6A, both winged helices, GST fusion (KAT6A, Homo sapiens, UniProt Q92794, residues 1-181)
Technique: protein binding microarray
Form: double-stranded DNA, one strand shown
Sample: in vitro
Tested at: not given
Setting: 8-mer, flanks averaged, mean of 2 arrays, mostly near background
Relative to: not given
Direction: higher = stronger binding
Target sequence (chain): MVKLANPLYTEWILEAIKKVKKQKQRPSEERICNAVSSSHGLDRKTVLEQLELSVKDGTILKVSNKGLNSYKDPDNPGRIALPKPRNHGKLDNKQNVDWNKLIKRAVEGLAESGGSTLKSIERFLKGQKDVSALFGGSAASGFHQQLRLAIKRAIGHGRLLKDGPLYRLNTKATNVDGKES
Oligonucleotide | E-score
ACTGGCGC | 0.148
GACTTACA | -0.0946
AGCACGCG | 0.215
GGGTTTTA | 0.0468
CGCCTCAG | 0.175
CCTCGTTA | -0.226
AGTTACCG | 0.113
ACCTGATG | -0.0833
CAGGCAGA | -0.251
GCCCCGAA | 0.0602
AAATTCAC | -0.038
CAGCTATC | -0.108
ACCTACCA | -0.334
CCTATTTA | -0.093
CGCTGTGC | 0.186
AAAATCAG | -0.109
GTTAGACA | -0.00878
CCTGTTCC | -0.0539
CAGAAAAA | -0.216
CTGACGGA | 0.11
AATTGGAG | -0.213
AACAGCTG | -0.0591
CGACAACA | 0.108
CAAACGTA | -0.147
AGGACCTG | -0.129

Study 4
Target: ABI1, truncated, D143A, DHFR fusion (Arabidopsis thaliana)
Technique: DHFR PCA, deep sequencing
Sample: yeast
Setting: methotrexate growth selection, single substitutions
Together with: (+)-ABA 1.4 µM
Relative to: wild-type fitted maximum
Direction: higher = stronger binding
Parent: PYL1, truncated, DHFR fusion (Arabidopsis thaliana); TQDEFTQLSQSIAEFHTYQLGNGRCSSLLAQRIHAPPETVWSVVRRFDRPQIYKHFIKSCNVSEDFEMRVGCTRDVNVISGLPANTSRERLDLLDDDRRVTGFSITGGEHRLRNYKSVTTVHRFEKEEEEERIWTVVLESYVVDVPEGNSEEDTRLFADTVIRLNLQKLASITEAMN
Substitution | relative binding score
G81I | -11.5%
D95V | -10%
V70D | 0.653%
F56Q | -6.29%
D96E | 60.5%
S117I | -4.57%
V137I | 17.3%
N165P | 19.5%
L93I | 89.1%
L156H | 25.5%
G148C | 9.59%
S9Q | 74.1%
E139I | 5.29%
S59G | 24.9%

A few entries again (study 2):
Oligonucleotide | log2 enrichment
UCCUGUGCUACACAUCGUAUGUACCGAAUCGGGGAAAAAAAGGGGAAAAAGGGGUGGGGAAAGUAUUAUGUUACGCCGUUCGGAUCUGCA | 0.565
GUCCUGUGCUACACAUCGUAUGUACCGAAUCGGGAGGGUUUUUUUGGGUUUUUUUGGGAAAGUAUUAUGUUACGCCGUUCGGAUCUGCAC | 0.0877
UGGGAGGUGGAUUUUGUUUAUUUUUUUAGCUCAUUUCCAGGGGUGGGAAUUUUUUUUUCAUAUGUGUCAUGAAUAAAGUUGUUUUUGAAA | 0.217
AAGUCCUGUGCUACACAUCGUAUGUACCGAAUCGGUUUUGGUUUUGGGUUUUGGGGAAAGUAUUAUGUUACGCCGUUCGGAUCUGCACUU | -0.432
UUAAAGUAGAGGAACAAAAAGAAGAACAGAAGGAGUUAGAGAAAUCUGAAAAAGAAGAGGAUGAGGAUGAUGAUAGGAAAUCUGAAGACG | -0.254
